Measurements from different studies.
A part holds a random share of what one study measured. Substitutions count along the parent as printed.

Sample 1 — technique: RNA Bind-n-Seq; form: RNA; matrix: in vitro; concentration: not given; notes: RNA with constant flanks, ends assumed; reference: input RNA pool; reading: higher = stronger binding; endpoint: bound/input enrichment
Target: RING finger protein unkempt homolog, zinc fingers 1-6, GST-SBP tag (UNK, Homo sapiens, UniProt Q9C0B0, residues 30-357)
Target sequence (chain): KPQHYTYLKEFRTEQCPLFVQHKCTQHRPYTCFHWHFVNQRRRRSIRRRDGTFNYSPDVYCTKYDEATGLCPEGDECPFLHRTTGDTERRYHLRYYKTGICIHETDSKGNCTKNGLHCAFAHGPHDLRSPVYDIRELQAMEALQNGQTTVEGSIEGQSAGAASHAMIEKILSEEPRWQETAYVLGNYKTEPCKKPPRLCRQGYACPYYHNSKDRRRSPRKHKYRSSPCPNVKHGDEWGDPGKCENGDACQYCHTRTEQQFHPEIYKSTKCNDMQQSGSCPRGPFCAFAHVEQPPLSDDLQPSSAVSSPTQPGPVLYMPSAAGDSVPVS
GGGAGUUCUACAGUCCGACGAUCACAUCAUGUAUGUAUGUGCAAAUGUUGUCUUUUUGAGGGAAUUUAGUAUUUAAAUUGCUUCACCGUCUAAGUUAUUAAAUUUUGUAUGAAAUAACUCUUGAAAACAUUCACUUUUCAGUACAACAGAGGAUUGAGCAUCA: 0.427 ratio
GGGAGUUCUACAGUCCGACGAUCCGCGAACGCGAGCCCCGCCCUGCGCGCCUUCCCUCCUGCGCUCGCCGGCCUCUUCUGCCUCUCCGAACCUUCCUGCGGUCGUGCUUGCAUCUCGCUGCUGCAGCCUCCCGGGCUCCGGUCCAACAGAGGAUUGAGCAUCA: 0.237 ratio
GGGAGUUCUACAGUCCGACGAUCAACCCAAGUAUUUUUAUGUAAAAAGAUUUCAAUUUAGAAUACUUCAUUUUUGAGAUGGAGUUCCGAAUAUUUCAUUUUGAAAUGGAACGAAAGGGUUAGGUUUUGAUGUAAAAGACAGGACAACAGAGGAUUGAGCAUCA: 1.03 ratio
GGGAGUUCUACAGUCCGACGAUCGUUGGUACUUCUGUAAAAACCUUAGUAUUAGCAUACAGCUCUGCAGUUUCCAGCAAAAUGGUCCGGCAGAUUUUAGAGCUUUGUCCUAACCUGGAGCAUCUGGAUCUUACCCAGACUGACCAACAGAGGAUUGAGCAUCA: 18.7 ratio
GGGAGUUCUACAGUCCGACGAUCCUGAAAGCUGCCAUUUCAGAACGUGAAGAGGUUAGAGGGAGAAGUGAACUGUUUCAUCCUGUCCGUGCCGACUGUAAGCUAAGGCAAAAAGCAACCACAAGAGCUGACACCGAUGUAGACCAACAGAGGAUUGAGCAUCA: 0.138 ratio
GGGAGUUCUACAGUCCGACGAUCGGUUUCCCCAAAGUCAGUAUUCUCCUCAGGGAUGCCAUUGAAAAGUUAUUUCCUGAUGCCAUCCGACUGAGAUUUGAAGACAUUCAGCAGAAUAAUGACAUAGUCCAAAGUCUUGCAGCCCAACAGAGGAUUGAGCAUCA: 0.662 ratio
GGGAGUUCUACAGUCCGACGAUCUCCAGCCGGUGUGAAGAGGAGACCCCUUCCCUCUUGUGGGGUUUGGAUCCUGUGUUUCCCGCCUUUGCAAAACUCUACAUCAGGGAUAUCCUGGACAUGAAGGAGUCCCGCCAGGUGCCACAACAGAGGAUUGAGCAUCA: 0.0804 ratio
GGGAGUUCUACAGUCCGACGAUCAAAACAGAAAAUGGUGCUGGAGACCAGUAGUUUAGUAAACCAAUUUUUUAUUCAUUUUAAACCGGUUUUAAACGACUUUUGUUUGCGGGGCUUUUAAAAGGAAAACCGAAUUAGGUCCACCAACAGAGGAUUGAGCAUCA: 5.66 ratio

Sample 2 — technique: aptamer microarray, sandwich; form: DNA with 2'F-ANA; matrix: in vitro; concentration: 200 nM; together with: Cy3 exosite-II aptamer, 400 nM; reading: higher = stronger binding; endpoint: mean fluorescence intensity; sequence: GGTTGGTGTGGTTGG
Target: Prothrombin, mature alpha-thrombin (F2, Homo sapiens, UniProt P00734)
Notes: whole 15-mer aptamer, many near background
2'F-ANA at 1 4 5 10 12 13 15: 47 a.u.
2'F-ANA at 1 5 8 11 12: 90.1 a.u.
2'F-ANA at 1 5 6 7 9 10 11 12 13 14: 48.3 a.u.
2'F-ANA at 1 3 5 6 7 8 10: 301 a.u.
2'F-ANA at 1 4 5 7 8 10 13 15: 48 a.u.
2'F-ANA at 2 4 5 6 7 8 10: 67.1 a.u.
2'F-ANA at 1 2 3 4 6 8 9: 215 a.u.
2'F-ANA at 1 4 5 7 9 12 15: 107 a.u.

Sample 3 — target: CCNB2, cyclin fold, Cln2 fusion (human); technique: yeast growth competition, sequencing; matrix: yeast; notes: weak parent motif; reference: not given; reading: higher = stronger binding; endpoint: normalised enrichment score
Starting sequence: CDC25A docking peptide (human); PPHRRRLLFACSP
F9Y: 0.81
R5W: 0.709
L7C: 0.654
R6W: 0.826

Further values, each from its own experiment
PhoQ, residues 284 288 289 292 302 303 ASVMEA
fold induction (PhoP, residues 12 14 15 18 19 HLGGL (Escherichia coli, UniProt P23836); Sort-seq, measured: YFP reporter; E. coli; PhoQ-PhoP variant library, together with: 10 µM Mg2+; reference: high Mg2+ state, higher = stronger signaling): 12.8

For quick reference, copied from above (sample 2):
2'F-ANA at 2 4 5 6 7 8 10: 67.1 a.u.
2'F-ANA at 1 2 3 4 6 8 9: 215 a.u.
2'F-ANA at 1 4 5 7 8 10 13 15: 48 a.u.
